Measured values collected from several papers.
Lines come from different studies, so protocols differ. ± marks the error that the study gave.

CCOC(=O)C(C)NC(=O)CN1C(=O)N/C(=C\c2ccc(C)cc2)C1=O (centres unmarked)
CC50 (MDBK; cell growth or viability, CCK-8; 72 h): 145 µM

O=[N+]([O-])c1ccc(/C=N/N=C/c2ccc([N+](=O)[O-])o2)cc1
CC50 (MDBK; CCK-8; 72 h): 24.6 ± 15.8 µM

CC1CCC2(C(=O)OCc3ccccc3)CCC3(C)C(=CCC4C5(C)CCC(OC6OC(CO)C(OC7OC(C)C(O)C(O)C7O)C(O)C6OC6OC(C)C(O)C(O)C6O)C(C)(C)C5CCC43C)C2C1C (centres unmarked)
CC50 (MARC145; cell growth or viability, MTT; 48 h): 81.4 µM

CCOC(=O)C(CC)NC(=O)CN1C(=O)S/C(=C\c2ccc(OC)cc2)C1=O (centres unmarked)
CC50 (MDBK; cell growth or viability, CCK-8; 72 h): > 230 µM

C[N+](C)(C)c1ccc(C2NC(c3ccc([N+](C)(C)C)cc3)C34c5c6c7c8c9c%10c(c%11c%12c3c3c5c5c%13c6c6c7c7c9c9c%14c%10c%10c%11c%11c%12c%12c3c3c5c5c%13c%13c6c6c7c9c7c9c%14c%10c%10c%11c%11c%12c3c3c5c5c%13c6c7c6c9c%10c%11c3c56)C824)cc1 (centres unmarked)
CC50 (DG-75; cell growth or viability; 24 h): 18.3 µM

Cc1ccc(/C=N/N=C/c2ccc([N+](=O)[O-])o2)cc1
CC50 (MDBK; CCK-8; 72 h): > 389 µM

Nc1ncnc2c1ncn2[C@@H]1O[C@H](CO)[C@@H](O)[C@H]1F
CC50 (CAKI-1; sulforhodamine B; 11 days, galactose medium): 43 µM

O=C(Nc1cc(F)c(F)c(F)c1)c1ccc(F)c(S(=O)(=O)N2CCC(NC(=O)c3ccc(C4CCN(C(=O)CC56CC7CC(CC(C7)C5)C6)CC4)cc3)CC2)c1
CC50 (HePAD38; cell growth or viability): > 60 µM

OC[C@H]1O[C@@H](n2cnc3c(O)ncnc32)[C@H](F)[C@@H]1O
CC50 (CAKI-1; cell growth or viability, SRB; 11 days): 55 µM

O=C(Nc1cc(F)c(F)c(F)c1)c1ccc(F)c(S(=O)(=O)N2CCC(NC(=O)C3CCN(C(=O)CC45CC6CC(CC(C6)C4)C5)CC3)CC2)c1
CC50 (HePAD38; cell growth or viability): > 60 µM

Nc1ccn([C@@H]2O[C@H](CO)[C@@H](O)[C@H]2F)c(=O)n1
CC50 (CAKI-1; cell growth or viability, SRB; 11 days): 51 µM

O=[N+]([O-])c1ccc(/C=N/N=C/c2ccc(O)cc2)s1
CC50 (MDBK; CCK-8; 72 h): 9.26 ± 2.36 µM

C#CCN1CCc2c(n(C(=C)C(=O)OC)c3ccccc23)C(C(=O)OC)C1 (centres unmarked)
CC50 (HePAD38; cell growth or viability, MTS; 14 days): 12.7 µM

COc1ccc(-c2oc3ccc(-c4cccnc4OC)cc3c2C#CC2(O)CCCCC2)cc1
CC50 (Huh-7.5.1): > 100 µM

C[C@H]1[C@H](C)CC[C@]2(CO)CC[C@]3(C)C(=CC[C@@H]4[C@@]5(C)CCCNC(C)(C)[C@@H]5CC[C@]43C)[C@H]12
CC50 (HFF primary foreskin fibroblasts; cell viability, CellTiter-Glo): 16.1 µM

C#CCN1CCc2c3n(c4ccccc24)C(=O)C(C)(C)C3(C(=O)OC)C1 (centres unmarked)
CC50 (HePAD38; cell growth or viability, MTS; 14 days): > 100 µM

O=C(CN1CCN(C(=O)CC23CC4CC(CC(C4)C2)C3)CC1)NC1CCN(S(=O)(=O)c2cc(C(=O)Nc3cc(F)c(F)c(F)c3)ccc2F)CC1
CC50 (HePAD38; cell growth or viability): 60 µM

CCOC(=O)C(CC)NC(=O)CN1C(=O)S/C(=C\c2ccc(C)cc2)C1=O (centres unmarked)
CC50 (MDBK; cell growth or viability, CCK-8; 72 h): 84.2 µM

C#CCN1CCc2c3n(c4ccccc24)C(=O)C(=C)C3(C(=O)OC)C1 (centres unmarked)
CC50 (HePAD38; cell growth or viability, MTS; 14 days): 13.7 µM

COc1ccc(-c2ccc3oc(-c4ccc(OC)cc4)c(C#CC4(O)CCCCC4)c3c2)cc1
CC50 (Huh-7.5.1): > 100 µM

O=[N+]([O-])c1ccc(/C=N/N=C/c2ccc(Cl)cc2)o1
CC50 (MDBK; CCK-8; 72 h): > 360 µM

CCOC(=O)CNC(=O)CN1C(=O)S/C(=C\c2ccc(C)cc2)C1=O
CC50 (MDBK; cell growth or viability, CCK-8; 72 h): 112 µM

O=C(Nc1cc(F)c(F)c(F)c1)c1ccc(F)c(S(=O)(=O)N2CCC(NC(=O)C3CN(C(=O)CC45CC6CC(CC(C6)C4)C5)C3)CC2)c1
CC50 (HePAD38; cell growth or viability): 60 µM

O=[N+]([O-])c1ccc(/C=N/N=C/c2ccc(OCc3ccccc3)cc2)o1
CC50 (MDBK; CCK-8; 72 h): > 286 µM

C#CCN1CCC2(C=CC(=O)OC)C(=C(C(=O)OC)C1)Nc1ccccc12 (centres unmarked)
CC50 (HePAD38; cell growth or viability, MTS; 14 days): > 100 µM

O=C(Nc1cc(F)c(F)c(F)c1)c1ccc(F)c(S(=O)(=O)N2CCC(NC(=O)c3ccc(N4CCN(C(=O)CC56CC7CC(CC(C7)C5)C6)CC4)cc3)CC2)c1
CC50 (HePAD38; cell growth or viability): > 60 µM

Cc1ccc(/C=N/N=C/c2ccc([N+](=O)[O-])s2)cc1
CC50 (MDBK; CCK-8; 72 h): > 366 µM

O=c1ccn([C@@H]2O[C@H](CO)[C@@H](O)[C@H]2F)c(=O)[nH]1
CC50 (CAKI-1; cell growth or viability, SRB; 11 days): > 250 µM

O=[N+]([O-])c1ccc(/C=N/N=C/c2ccc([N+](=O)[O-])s2)cc1
CC50 (MDBK; CCK-8; 72 h): > 329 µM

CCOC(=O)CNC(=O)CN1C(=O)S/C(=C\c2ccc(OC)c(O)c2)C1=O
CC50 (MDBK; cell growth or viability, CCK-8; 72 h): > 256 µM

O=C(CC12CC3CC(CC(C3)C1)C2)NC12CCC(C(=O)NC3CCN(S(=O)(=O)c4cc(C(=O)Nc5cc(F)c(F)c(F)c5)ccc4F)CC3)(CC1)CC2
CC50 (HePAD38; cell growth or viability): 60 µM

O=[N+]([O-])c1ccc(/C=N/N=C/c2ccccc2)s1
CC50 (MDBK; CCK-8; 72 h): 10.4 ± 1.97 µM

C=Cc1cn([C@@H]2O[C@H](CO)C[C@H]2O)c2ncnc(N)c12
CC50 (MRC-5 SV2 fibroblasts; resazurin; 72 h, 5% fetal bovine serum): 25.6 µM

COc1cc(-c2ccc3oc(-c4ccsc4)c(C#CC4(O)CCCCC4)c3c2)cc(OC)c1OC
CC50 (Huh-7.5.1): > 100 µM

CCOC(=O)C1NC(c2ccc[n+](C)c2)C23c4c5c6c7c8c9c(c%10c%11c2c2c4c4c%12c5c5c6c6c8c8c%13c9c9c%10c%10c%11c%11c2c2c4c4c%12c%12c5c5c6c8c6c8c%13c9c9c%10c%10c%11c2c2c4c4c%12c5c6c5c8c9c%10c2c45)C713 (centres unmarked)
CC50 (DG-75; cell growth or viability; 24 h): > 50 µM

Excerpt of the above:
COc1ccc(-c2oc3ccc(-c4cccnc4OC)cc3c2C#CC2(O)CCCCC2)cc1
CC50 (Huh-7.5.1): > 100 µM

C[C@H]1[C@H](C)CC[C@]2(CO)CC[C@]3(C)C(=CC[C@@H]4[C@@]5(C)CCCNC(C)(C)[C@@H]5CC[C@]43C)[C@H]12
CC50 (HFF primary foreskin fibroblasts; cell viability, CellTiter-Glo): 16.1 µM

C#CCN1CCc2c3n(c4ccccc24)C(=O)C(C)(C)C3(C(=O)OC)C1 (centres unmarked)
CC50 (HePAD38; cell growth or viability, MTS; 14 days): > 100 µM

O=C(CN1CCN(C(=O)CC23CC4CC(CC(C4)C2)C3)CC1)NC1CCN(S(=O)(=O)c2cc(C(=O)Nc3cc(F)c(F)c(F)c3)ccc2F)CC1
CC50 (HePAD38; cell growth or viability): 60 µM

CCOC(=O)C(CC)NC(=O)CN1C(=O)S/C(=C\c2ccc(C)cc2)C1=O (centres unmarked)
CC50 (MDBK; cell growth or viability, CCK-8; 72 h): 84.2 µM
